Assay results of several laboratories.
A part holds a random share of what one study measured.

Sample 1
Target: Hepatocyte nuclear factor 3-beta, forkhead domain (FOXA2, Homo sapiens, UniProt Q9Y261, residues 142-269)
Technique: protein-binding microarray
Form: hairpin DNA
Sample: in vitro
Concentration: not given
Setting: whole hairpin DNA, median over replicate spots
Baseline: not given
Reading: higher = stronger binding
Target sequence (chain): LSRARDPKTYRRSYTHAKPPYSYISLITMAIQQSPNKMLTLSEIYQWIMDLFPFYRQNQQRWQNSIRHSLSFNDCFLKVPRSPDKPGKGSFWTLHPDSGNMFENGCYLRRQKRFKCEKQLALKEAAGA
Oligonucleotide | median fluorescence
GAGGCCATGCCGACAACGCCTCCTGGCGTTGTCGGCATGGCCTCACACTC | 3380 a.u.
GAGGCCATGTAAACACGGCCTCCTGGCCGTGTTTACATGGCCTCACACTC (5mC at 16 28) | 3540 a.u.
GAGGCCATGTACCCAACGCCTCCTGGCGTTGGGTACATGGCCTCACACTC | 3260 a.u.
GAGGCCATCCAAACAACGCCTCCTGGCGTTGTTTGGATGGCCTCACACTC | 3220 a.u.
GAGGCCATGTCACCAACGCCTCCTGGCGTTGGTGACATGGCCTCACACTC | 3180 a.u.
GAGGCCATGTAAACAAAGCCTCCTGGCTTTGTTTACATGGCCTCACACTC | 5460 a.u.
GAGGCCATGCAACGAACGCCTCCTGGCGTTCGTTGCATGGCCTCACACTC (5mC at 31) | 3450 a.u.
GAGGCCATGCGAACAACGCCTCCTGGCGTTGTTCGCATGGCCTCACACTC (5mC at 10 34) | 3270 a.u.
GAGGCCATGCAACCAACGCCTCCTGGCGTTGGTTGCATGGCCTCACACTC (5mC at 13) | 3340 a.u.
GAGGCCACGTAAACAACGCCTCCTGGCGTTGTTTACGTGGCCTCACACTC (5mC at 36) | 3670 a.u.
GAGGCCATGTTAACAACGCCTCCTGGCGTTGTTAACATGGCCTCACACTC | 3050 a.u.
GAGGCCATGTAAAAAACGCCTCCTGGCGTTTTTTACATGGCCTCACACTC | 2900 a.u.
GAGGCCATGTAACCAACGCCTCCTGGCGTTGGTTACATGGCCTCACACTC (5mC at 14) | 3110 a.u.
GAGGCCATGCAAACAACGCCTCCTGGCGTTGTTTGCATGGCCTCACACTC (5mC at 17) | 3780 a.u.
GAGGCCCTGCAAACAACGCCTCCTGGCGTTGTTTGCAGGGCCTCACACTC (5mC at 7) | 3430 a.u.
GAGGCCATGTAAACAATGCCTCCTGGCATTGTTTACATGGCCTCACACTC | 5140 a.u.
GAGGCCACGTAAACAACGCCTCCTGGCGTTGTTTACGTGGCCTCACACTC (5mC at 8) | 3820 a.u.
GAGGCCATGCAAAAAACGCCTCCTGGCGTTTTTTGCATGGCCTCACACTC | 2940 a.u.
GAGGCCATCTAAACAACGCCTCCTGGCGTTGTTTAGATGGCCTCACACTC | 3150 a.u.
GAGGCCCTGTAAACAACGCCTCCTGGCGTTGTTTACAGGGCCTCACACTC (5mC at 7) | 3730 a.u.
GAGGCCATGCAGACAACGCCTCCTGGCGTTGTCTGCATGGCCTCACACTC | 3420 a.u.

Sample 2
Target: Interferon regulatory factor 5, full length, phosphomimetic (IRF5, Homo sapiens, UniProt Q13568-2, residues 1-514, K96S/S451D/S453D/S456D/S462D)
Technique: protein-binding microarray
Form: double-stranded DNA, one strand shown
Sample: in vitro
Concentration: 250 nM
Setting: 60-bp whole probe
Together with: salmon DNA 0.4 mg/ml
Baseline: random background probes
Reading: higher = stronger binding
Shared flanks, not repeated: GCCTAGCAC … GTCTTGATTCGCTTGACGCTGCTG
Oligonucleotide | log fluorescence
TTGGATATCGGGACTGGATTAGTGCTA | 0.565 z-score
TTGGGTATCGGTCTCGGTTAGTGCTAG | 6.12 z-score
TTTGAGCTCTGTCTGGGATGGTGCTAG | -0.268 z-score
GACGATTTCAGACTTGAGACGTGCTAG | 0.0907 z-score
GGCGATATCGGGACTGGAGACGTGCTA | 0.611 z-score
GCAGGTCTGGACCCAGACTCGTGCTAG | -0.648 z-score
GACGGTATCCTTATCCTGGCGTGCTAG | 0.056 z-score
GACGGTCTCGGTTTCGCGACGTGCTAG | 0.85 z-score
GACGGACTGGACACTGAGGACGTGCTA | -0.491 z-score
TTAGGACTGGATTTTCGGTTAGTGCTA | 5.2 z-score
TTAGATCTCGGGTATCGATTAGTGCTA | 2.85 z-score
ATGAGTCTCAAAATTAGAGAGTGCTAG | 0.0504 z-score
TTAGATATCGGGATTCGATTAGTGCTA | 2.19 z-score
TTAGCTTTCAGACTGGATTAGTGCTAG | 1.46 z-score
TACGGACTGCTTTTCCTGACGTGCTAG | -0.365 z-score
TTAGATATCGGGTATCGACTAGTGCTA | 3.82 z-score
GACGGACTGGGTACTGGGGACGTGCTA | -0.66 z-score
GACGGTCTCGGTTTCGGGAGGTGCTAG | 3.03 z-score
TTAGAAATCGGGACTGGATTAGTGCTA | 0.189 z-score

Sample 3
Target: Histone acetyltransferase KAT6A, winged helix 1, GST fusion (KAT6A, Homo sapiens, UniProt Q92794, residues 1-85)
Technique: protein binding microarray
Form: double-stranded DNA, one strand shown
Sample: in vitro
Concentration: not given
Setting: 8-mer, flanks averaged, mean of 2 arrays, mostly near background
Baseline: not given
Reading: higher = stronger binding
Construct (chain): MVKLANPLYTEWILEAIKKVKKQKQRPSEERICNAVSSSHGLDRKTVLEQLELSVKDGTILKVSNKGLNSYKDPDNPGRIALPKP
Oligonucleotide | E-score
AGAATTAT | 0.0166
CTGCCAAA | -0.151
CCTCGTCG | 0.0657
ATTATAGC | -0.0906
ACAAAGCA | -0.0362
ACATAGGC | -0.142
GTAGCTGA | -0.0794
AGGTAGGA | -0.148
AAGCAGGC | -0.0828
CGATTTCA | -0.0423
ACACCTTC | 0.073
GAGCGGCC | 0.377
CGTTGTAA | -0.08
ACCATATC | -0.122
ACGTCTGA | -0.132
CCAGATTC | -0.202
ACAGTATG | -0.121
AGATTAAC | 0.0127
ACTGTCCA | -0.136
GCGCGGGA | 0.429
ATGTAAGC | -0.0166
CTCCTGTA | -0.00968
AGGGAACG | -0.196
CACCACGG | 0.156
AGTTCAAC | -0.17

Sample 4
Target: Fragile X messenger ribonucleoprotein 1, C-terminal low-complexity region (Fmr1, Mus musculus, UniProt P35922)
Technique: RNA Bind-n-Seq
Form: RNA
Sample: in vitro
Concentration: 200 nM
Setting: whole 134-nt RNA, ends assumed
Together with: 150 mM KCl
Baseline: input library
Reading: higher = stronger binding
Oligonucleotide | log2 enrichment
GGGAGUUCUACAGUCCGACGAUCCUCAAGUCCUGUGCUACACAUCGUAUGUACCGAAUCGGGGUGGGUGGGGUGGGAAAGUAUUAUGUUACGCCGUUCGGAUCUGCACUUCCAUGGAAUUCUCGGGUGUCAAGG | 1.01
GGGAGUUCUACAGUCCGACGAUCUGGAGAGGGAAGUCCCAAUGGUGCUAGAAUGGUGCUGCAGUGGCAGAAGACGGCUCACAAGUGAGGUCUGGAAGAACAACAGGGAAGACAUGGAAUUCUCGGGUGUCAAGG | 0.181
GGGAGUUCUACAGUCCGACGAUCCAAGUCCUGUGCUACACAUCGUAUGUACCGAAUCGGGGCCCGGCCCGGGGCCCGGAAAGUAUUAUGUUACGCCGUUCGGAUCUGCACUUCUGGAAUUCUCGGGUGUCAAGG | -0.78
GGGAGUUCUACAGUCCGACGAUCCACAGACAACACGCACCCACACAGACACAGAGGGAAGGGAUUGGGAUGGGGACAGGGUGCACAGCAGGGCGGGGUAGGACCCCAGCCCCUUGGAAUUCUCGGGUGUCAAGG | 1.27
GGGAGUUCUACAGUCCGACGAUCUAACUUUAGAGAAGGAUCUGAUGGAUAUGGCAGUGGACGUGGAUUUGGGGAUGGCUAUAAUGGGUAUGGAGGAGGACCUGGAGGUGGCAAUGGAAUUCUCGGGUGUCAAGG | 0.198
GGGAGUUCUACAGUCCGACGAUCCCUCAAGUCCUGUGCUACACAUCGUAUGUACCGAAUCGGAGGUUUUUGGUGGAAAGUAUUAUGUUACGCCGUUCGGAUCUGCACUUCCAGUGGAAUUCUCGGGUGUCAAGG | 0.145
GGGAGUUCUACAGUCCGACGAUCGUCCUGUGCUACACAUCGUAUGUACCGAAUCGGGGCCCCCGGGGCCCCCGGGCCCCCGGAAAGUAUUAUGUUACGCCGUUCGGAUCUGCAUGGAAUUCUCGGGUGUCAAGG | 0.444
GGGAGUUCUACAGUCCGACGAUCCAAGUCCUGUGCUACACAUCGUAUGUACCGAAUCGGGGAGGGGUGGGGUUUGGGGAAAGUAUUAUGUUACGCCGUUCGGAUCUGCACUUCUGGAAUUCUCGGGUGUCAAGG | 1.44
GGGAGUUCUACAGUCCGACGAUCAGUCCUGUGCUACACAUCGUAUGUACCGAAUCGGGAAAGGGUUUUUGGGAAAAAGGGAAAGUAUUAUGUUACGCCGUUCGGAUCUGCACUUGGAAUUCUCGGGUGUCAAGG | -0.0858
